Published values gathered from unrelated publications.
Every numbered part comes from another study and shows a few of its results, in no order. Changes are numbered by the printed parent chain.

Sample 1 — technique: protein-binding microarray; molecule type: double-stranded DNA, one strand shown; matrix: in vitro; concentration: not given; reading: higher = stronger binding; measurement: E-score
Target: Protein C-ets-1 (ETS1, Homo sapiens, UniProt P14921, residues 1-441, K379A, full length assumed)
UniProt P14921, sequence (whole entry, unmodified, looked up): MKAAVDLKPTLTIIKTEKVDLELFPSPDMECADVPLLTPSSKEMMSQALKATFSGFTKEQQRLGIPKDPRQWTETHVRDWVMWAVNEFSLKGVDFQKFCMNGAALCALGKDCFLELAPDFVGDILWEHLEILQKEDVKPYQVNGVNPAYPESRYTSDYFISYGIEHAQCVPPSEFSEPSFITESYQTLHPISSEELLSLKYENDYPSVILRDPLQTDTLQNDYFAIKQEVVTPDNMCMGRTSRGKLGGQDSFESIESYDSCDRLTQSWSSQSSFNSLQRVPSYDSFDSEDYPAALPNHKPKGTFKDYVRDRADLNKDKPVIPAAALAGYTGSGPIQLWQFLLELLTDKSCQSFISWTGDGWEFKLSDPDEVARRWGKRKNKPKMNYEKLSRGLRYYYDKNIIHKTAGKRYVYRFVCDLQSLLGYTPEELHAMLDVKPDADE
Setting: k-mer, scored over probes, only values ≥0.25
GTGTCGGA: 0.3
GGCGGGAC: 0.31
ACCGTCGC: 0.297
CGGTTAGA: 0.305
CACCGGTG: 0.479
ATACTACG: 0.272
ATATCAAC: 0.275
ACCGGTGG: 0.371
TGCCGGCA: 0.381
AACATCCG: 0.334
AGTACACA: 0.259
ACTTACCG: 0.31
AGCGGAAG: 0.311
CGTAACAG: 0.297
GGTAACAC: 0.27
CCCCGCCG: 0.327
CACCCGGA: 0.263
GCCGGGAC: 0.27
TAACTACA: 0.257
ACCGGGGA: 0.385
CCGGTGTA: 0.414
CCCGGCGG: 0.311
CAATGTAA: 0.253
ACCGTCGG: 0.314
CCGGTGGC: 0.294

Sample 2 — target: NFIL3, bZIP domain (human); technique: DHFR protein complementation; matrix: yeast; relative to: wild-type JUN-FOS pair; reading: higher = stronger binding; measurement: binding fitness
Setting: single substitutions, most at no-binding floor
Starting sequence: JUN, bZIP domain (human); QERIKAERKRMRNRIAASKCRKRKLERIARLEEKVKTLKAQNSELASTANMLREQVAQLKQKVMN; partner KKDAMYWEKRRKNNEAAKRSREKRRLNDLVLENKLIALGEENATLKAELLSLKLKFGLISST
Q55N: -1.44 natural log
V56T: -1.53 natural log
I28G: -1.38 natural log
K34T: -1.48 natural log
A49Y: -1.31 natural log
L31G: -1.51 natural log
L45T: -1.45 natural log
I28H: -1.11 natural log
E54V: -1.42 natural log
A46R: -1.39 natural log
A49E: -1.32 natural log
L38D: -1.54 natural log
L52C: -1.43 natural log
S47H: -1.31 natural log
A49N: -1.52 natural log
L31D: -1.37 natural log
S43N: -1.59 natural log
E44W: -1.46 natural log
L31R: -1.43 natural log
T37M: -0.973 natural log
A49V: -1.51 natural log
T37Q: -1.02 natural log
A49T: -1.51 natural log
V35R: -1.47 natural log
A29N: -1.47 natural log

Sample 3 — technique: RNA Bind-n-Seq; molecule type: RNA; matrix: in vitro; concentration: 365 nM; relative to: no-protein control; reading: higher = stronger binding; measurement: RBNS enrichment (R)
Target: RNA binding protein fox-1 homolog 2, RRM domain, GST-SBP tag (RBFOX2, Homo sapiens, UniProt O43251-10, residues 100-194)
Setting: natural RNA segment, single round, ends assumed
Residues (chain): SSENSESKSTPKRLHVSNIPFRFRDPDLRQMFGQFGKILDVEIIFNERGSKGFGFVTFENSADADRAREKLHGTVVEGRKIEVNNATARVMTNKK
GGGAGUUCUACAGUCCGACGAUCUUGUUUUCUUUGGUUUUUGUGUUUUUUUGGAGUUUGGCUGGAAGAGGUUUCUGUAAACCUGAAGCCUUGGUGCAUAGAGGGCUUUGUGGAAGCACAUAGUCAGCGGCUGGUGGAAUUCUCGGGUGCCAA: 0.991
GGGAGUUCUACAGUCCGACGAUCAUCCAAAACAAACUCCAUCCCCCCCAAGGCAGCCCAAAUAUCCAGAAACGGGCUCACCUGGACUAUAGAAUUUCUGCUGGUCAGAUAAAGACAGCAUUCCUCGGGAACCCUGGAAUUCUCGGGUGCCAA: 0.673
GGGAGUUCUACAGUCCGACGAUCUUUCAUCUCACUCCCAUUGCAAAUCAAGGAGAUCUCAGCAGUGAACUGGGAAAAUACAAAAGCUCUGGGCUAAUCUAUAAAAACUUACCCUGAAAUAUUAAGGGCAGUUUUGGAAUUCUCGGGUGCCAA: 0.676
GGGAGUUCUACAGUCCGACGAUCCAAAUAUCUCAUUUUACAAGGUAGUUUAAAUUGUGUUAAAAUCACUAGCAAGAAGUAUAUAUUUUCUUUGAUUUUUAUUUUCAUUUUCCUUUGCCUGUAUUUAUCAAAGAUGGAAUUCUCGGGUGCCAA: 0.576
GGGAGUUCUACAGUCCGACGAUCUUCCUGCUAUAAUCCCUGAUGAAAACCUGACGGUGAACUCACUAAUAAACAAGACUGACUCCUUCUUAGCUUCUGGGGGUGAAUUGUGUGGACAGCAGAAUUGAGGCUGUUGGAAUUCUCGGGUGCCAA: 1.3
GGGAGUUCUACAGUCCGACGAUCGGAACCUUUUCUUAAAAUGAAAAUAAUUACUGCUAUUUUAAAAUUUCUUGAUCAUUGAAUGUGAGACCCUUCUAACAUGAUUUGAGAAGCUGUACAAGUAUAGGCAGAGUUGGAAUUCUCGGGUGCCAA: 0.797
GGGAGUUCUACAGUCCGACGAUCUGCCAAUCCUGUCCCUGAAGCAGGGGGAGGCACAGAUUGUCCGUGGGAGUGAGUCAGUGUCUGGGAGUGGGGUAGGCAGCUUCCAUUAGGGUCCUUUUCCUUCACCAGCAUGGAAUUCUCGGGUGCCAA: 0.589
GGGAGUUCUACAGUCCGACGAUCCACGUCCCGCCGUUGGAGAAGGAGCGCGGGGGCGUUAGUGGACCCGCGCUCCCAUCCCCCACUCUCAGGGCUGGGGACUCGAAGGAGGCGGAGAGUAGACGGGGGCGACCUGGAAUUCUCGGGUGCCAA: 0.302
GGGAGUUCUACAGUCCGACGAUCGUAUUAGGUGUUAUAAGCAAUCUAGAGAUGAUUUAGCAAGUAUACAGGAGGAUGUGCCUAGGUUAUAUGCAAAUACUGUGCCAUUUUAUAUCAGGAACUUGAGCAUCUGCUGGAAUUCUCGGGUGCCAA: 1.58
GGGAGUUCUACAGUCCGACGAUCUGUGAUUUUGCCAAAGUUGUAGCUAAAUAUUUAUACACUUGUCUUGAAUUUUUUUCAGAUCCACUUAAAAUAUUUAGAAAAACAAGUUUUAUUCCUUAUGUGUCUUAUAAUGGAAUUCUCGGGUGCCAA: 0.555
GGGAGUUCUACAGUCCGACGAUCCUCUGAGCUUUGUUACUGAAAUGAGCCUCGUGGGGAGCAUCAGAGAAGGCCAGGAAGAAUGGUGUGUUUCCCUAGACUCUGUAACCACCUCUCUGUCUUUUUCCUUCCUGUGGAAUUCUCGGGUGCCAA: 0.424
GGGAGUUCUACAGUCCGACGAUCCUGUGACAAUCAGCAAAGCCUCGCCUGGGCCCUCAUCUGGGAUGAUGGGGGGAACGGACAGAUAUUCCCAUCUUGGAGGUCAUCCAUUAGGAAUUAAAUUCUCCAGCUUCUGGAAUUCUCGGGUGCCAA: 0.264

Sample 4 — technique: protein-binding microarray; molecule type: double-stranded DNA, one strand shown; matrix: in vitro; concentration: 0.8 µM; setting: whole 60-bp probe, no competitor; reading: higher = stronger binding; measurement: fluorescence intensity
Target: Centromere-binding protein 1, full length, N-terminal tag (CBF1, Saccharomyces cerevisiae, UniProt P17106, residues 1-351)
UniProt P17106, sequence (whole entry, looked up): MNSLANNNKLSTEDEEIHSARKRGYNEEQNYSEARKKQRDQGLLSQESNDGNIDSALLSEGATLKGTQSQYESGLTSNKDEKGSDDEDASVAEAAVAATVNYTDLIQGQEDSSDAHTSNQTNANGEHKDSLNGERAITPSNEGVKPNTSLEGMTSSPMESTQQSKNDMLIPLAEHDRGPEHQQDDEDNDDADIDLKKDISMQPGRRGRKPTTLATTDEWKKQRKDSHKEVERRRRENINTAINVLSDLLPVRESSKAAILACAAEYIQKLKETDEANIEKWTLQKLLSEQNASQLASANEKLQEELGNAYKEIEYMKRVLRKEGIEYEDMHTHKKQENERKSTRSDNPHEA
GAACTCCTCAGAGGTGTCATCAGAAACACCTCATAGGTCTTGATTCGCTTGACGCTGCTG: 501 a.u.
CTAGATTTGTTGGATTGCGTGTTTACGATCCATTTCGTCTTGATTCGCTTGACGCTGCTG: 501 a.u.
CTATATCTTTAGATTAACGTCACCAATTTCATATTCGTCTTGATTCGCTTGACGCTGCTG: 529 a.u.
CTACATGGTGGAAAGTAGGTGACCCTTTGAACATTCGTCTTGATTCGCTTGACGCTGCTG: 538 a.u.
GAAGGCTTTTTCTATAACGTGTATTATGAAAAATAGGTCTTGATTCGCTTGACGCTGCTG: 681 a.u.
CTATTCAAAAAGGATCAGGTGAGATATTAGAGTTTCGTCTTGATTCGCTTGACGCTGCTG: 960 a.u.
CTAAAGACTGACAGTCACGTTGAGTCCTATTATTTCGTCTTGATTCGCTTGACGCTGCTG: 1310 a.u.
GAAGGGGCTTGTGGTCACCTGTCATAGGATGCCTAGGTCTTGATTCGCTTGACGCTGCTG: 2170 a.u.
TGTACGAAGCTATGTTGCATCATTATAGTAGTTAGGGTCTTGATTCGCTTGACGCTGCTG: 525 a.u.
CTATAGTAAAATGATGGTGTGGAAGACATAGATTTCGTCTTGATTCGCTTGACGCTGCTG: 517 a.u.
GAAATAAGATAATTGCACATGCAAACAGTCAATTAGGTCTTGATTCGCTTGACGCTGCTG: 594 a.u.
GAATATTTTATCGGAAACGTGTACCGTGAAATGTAGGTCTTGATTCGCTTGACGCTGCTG: 712 a.u.
GAAAGACATACTCTGTTCGTGATGTTTCTGCATTAGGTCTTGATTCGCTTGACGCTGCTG: 539 a.u.
CTAACTTTTGAAGAGCACATGTAATATTTGCTCTTCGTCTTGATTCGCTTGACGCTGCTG: 751 a.u.
CCTAACTACTATAAACACGCTCAATAGCTTCGTACAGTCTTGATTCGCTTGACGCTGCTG: 519 a.u.
GAATCTATGATCCGTCACCTATTTTTATTCTTCTAGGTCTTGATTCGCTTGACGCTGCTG: 517 a.u.
TGTACGAAGCTATATAATGTCACTATAGTAGTTAGGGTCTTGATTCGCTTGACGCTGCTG: 541 a.u.
GAAAAACAAATATTGCACGTGATACAAAATGTATAGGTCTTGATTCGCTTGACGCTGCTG: 19500 a.u.
GAATTGAAGAAGAAAAACATCAGGGACAGATGATAGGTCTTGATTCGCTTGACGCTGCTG: 545 a.u.
CTATTCCCTTACCATCATCTGATCCGGGAAAGGTTCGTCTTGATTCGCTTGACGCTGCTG: 726 a.u.

Sample 5 — target: CCNB2, cyclin fold, Cln2 fusion (human); technique: yeast growth competition, sequencing; matrix: yeast; setting: weak parent motif; relative to: not given; reading: higher = stronger binding; measurement: normalised enrichment score
Starting sequence: ORC1 docking peptide (human); PRARKRLELGNLG; partner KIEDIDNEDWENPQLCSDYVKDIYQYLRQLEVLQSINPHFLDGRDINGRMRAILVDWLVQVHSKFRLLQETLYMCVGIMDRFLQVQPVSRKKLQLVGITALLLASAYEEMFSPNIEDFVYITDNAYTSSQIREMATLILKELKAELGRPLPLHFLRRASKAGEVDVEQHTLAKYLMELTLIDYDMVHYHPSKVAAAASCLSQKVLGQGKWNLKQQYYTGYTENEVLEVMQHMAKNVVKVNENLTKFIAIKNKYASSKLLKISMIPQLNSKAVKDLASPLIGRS
L7I: 0.446
L12E: 0.464
G13Y: -0.35
L9D: 0.206
P1H: 0.452
N11P: 0.807
L9T: 0.454
P1F: -0.11
G10C: 0.398
N11E: -0.236
L12R: -0.221
R2Q: 0.253
L7Q: 0.446
L12W: 0.921
G10D: 0.559
R4T: 0.741
G13D: 0.565
R4C: -0.0973
G10V: 0.566
A3I: -0.106
P1M: 0.249
R6G: 0.962
E8L: 0.133
R6C: 0.486

Some of these lines once more (sample 1):
ATACTACG: 0.272
ACCGTCGC: 0.297
CACCGGTG: 0.479
ACCGGGGA: 0.385
CCGGTGTA: 0.414
AACATCCG: 0.334
ACCGGTGG: 0.371
CCCCGCCG: 0.327
GGCGGGAC: 0.31
ATATCAAC: 0.275
CGGTTAGA: 0.305
CAATGTAA: 0.253
AGCGGAAG: 0.311
GCCGGGAC: 0.27
CACCCGGA: 0.263
ACCGTCGG: 0.314
